Measured values collected from several papers.
“And” joins repeats or separate records; there may be more than shown. Numbers after ± are the reported error.

SMILES | assay | system | setting | scale | measurement | result
FC(F)(F)c1ccc(CNc2ccc(Cc3c[nH]c4ncc(Cl)cc34)cn2)cn1 | measured: Nausea | patients with advanced solid tumours, non-TGCT cohort | oral, 1000 mg/day, any grade | – | treatment-related adverse events | 33%
N#Cc1ccc2c(c1)[C@H]1CCCN(C(=O)c3ccc4[nH]cnc4c3)[C@H]1C2 | – | human | 20 mg, end of trial | – | mean ACTH level | 5.8 pmol/L
CCNCCCNC/C=C\CNCCCNCC | LC-MS/MS | human cancer patients, plasma | intravenous infusion 60 min, 50 mg, median, cycle 1 | – | AUMC(0-inf) | 325 ng·h²/mL
COc1cccc(-c2n[nH]c(SCc3ccccn3)n2)c1OC | – | Sprague-Dawley rats, both sexes | oral dietary, 10 mg/kg/day, day 7, 6 h | – | plasma concentration | 276 ng/mL
O=C(O)CCCOc1ccc([18F])cc1-c1cc(-c2ccccc2C(F)(F)F)n(-c2ccccc2)n1 | gamma counting | male ddY mice, brain | intravenous, 2.1 MBq, 60 min | – | radioactivity uptake | 0.23 ± 0.05 SUV
COc1ncc(-c2nc3c(n2C(C)C)[C@H](c2ccc(Cl)cc2)N(c2cc(Cl)cn(C)c2=O)C3=O)c(OC)n1 | LC-MS/MS | human, plasma | oral, 20 mg, cycle 1 day 8, low-dose arm | – | AUC(0-last) | 1130 ng·h/mL
CNC(=O)c1ccc(-c2cnc3ncc(Cc4ccc5ncccc5c4)n3n2)cc1F | CTCAE v4.0, any causality | human cancer patients | oral, 600 mg twice daily, expansion cohort at RP2D | – | creatinine increase incidence (all grades) | 8%
CCn1cc(C(=O)N2CCOCC2)c(=O)c2cc(NC3Cc4ccccc4C3)cnc21 | – | human, fed | oral suspension, 1200 mg/day twice daily, day 8, arithmetic mean | – | half-life | 5.4 h
C[C@H]1CN(C(=O)CC#N)[C@]12CCN(c1ncnc3[nH]ccc13)C2 | – | healthy adults, plasma | oral, 6 mg single dose | – | half-life, median or range | 2.8 h
N#CCNC(=O)c1ccc(-c2ccnc(Nc3ccc(N4CCOCC4)cc3)n2)cc1 | – | healthy volunteers, plasma | oral, dose not given, together with: rifampin multiple-dose | relative to: with single-dose rifampin | AUCinf decrease | 46%
COc1cc2[nH]c(C)c(-c3ccc(OC(F)(F)F)cc3)c(=O)c2cc1Cl | – | – | pH 7.4 | – | kinetic solubility | < 2 µM
C=CCN1CC(=O)N2[C@@H](Cc3ccc(O)cc3F)C(=O)N(Cc3cccc(N4CC(N5CCN(CC)CC5)C4)n3)C[C@@H]2N1C(=O)NCc1ccccc1 | measured: Nausea | advanced solid tumour patients | oral, 120 mg twice daily, expansion part, grade ≥3 | – | treatment-related adverse events | 0%
CC(C)=CCC/C(C)=C/C(=O)O.Cc1cc(/C=C/C#N)cc(C)c1Nc1ccnc(Nc2ccc(C#N)cc2)n1 | – | Capmul MCM C8 | – | – | kinetic solubility | ~50 mg/mL
Cc1nc2cccc(OCC(C)(C)C(=O)NC(C)C)c2c(N)c1C(=O)O | – | Sprague-Dawley rat, male, plasma | oral, 100 mg/kg, day 7 over day 1, 7-day repeated dosing | relative to: day 7 over day 1 | Cmax ratio | 0.8 ± 0.48
CCCC1CCC(C2CCC(c3cc(F)c(F)c(F)c3)CC2)CC1 (stereo not drawn) | – | rat, placenta | 5000 ng/mL in perfusate, high dose, mixture of 21 LCMs | – | median placental accumulation | 122 ng/g
CCC(C)n1ncn(-c2ccc(N3CCN(c4ccc(OCC5COC(Cn6cncn6)(c6ccc(Cl)cc6Cl)O5)cc4)CC3)cc2)c1=O (stereo not drawn) | measured: red blood cells in urine | healthy human participants | oral, 200 mg, compound alone cohort | – | adverse event incidence | 7%
COC(=O)c1ccccc1-c1c2ccc(=N)cc-2oc2c1ccc1cccc(O)c12.Cl | – | 12.5 mM aqueous NaOH | pH 12.1, 10% DMSO | – | molar extinction coefficient | 15600 M⁻¹ cm⁻¹
Cc1cc(-c2nccc3c2ccn3CC(=O)Nc2ccc(-c3cnccn3)cn2)ccn1 | – | human | SAD part, single 40 mg dose | – | subjects with gastrointestinal disorders TEAEs | 16.7%
Cc1nc(-c2ccc(OCC(C)C)c(C#N)c2)sc1C(=O)O | – | KM mouse, chronic hyperuricaemia model | dose not given, day 26 | – | body weight | 39.3 g and 34.9 g and 38.4 g and 41.2 g and 33.7 g and 44.2 g
C[C@@H]1COCCN1c1cc(C2([S@](C)(=N)=O)CC2)nc(-c2cc[nH]c3nccc2-3)n1 | – | Japanese advanced solid tumour patients | oral, 160 mg twice daily, any grade | – | Paronychia incidence | 16.7%
CCC(=O)O[C@]1(C(=O)SCF)[C@H](C)C[C@H]2[C@@H]3C[C@H](F)C4=CC(=O)C=C[C@]4(C)[C@@]3(F)[C@@H](O)C[C@@]21C | three-compartment model | rat, plasma | intravenous, 90 nmol/kg | – | rapid compartment volume | 2.8 ± 1 L/kg

A few entries again:
SMILES | assay | system | setting | scale | measurement | result
O=C(O)CCCOc1ccc([18F])cc1-c1cc(-c2ccccc2C(F)(F)F)n(-c2ccccc2)n1 | gamma counting | male ddY mice, brain | intravenous, 2.1 MBq, 60 min | – | radioactivity uptake | 0.23 ± 0.05 SUV
COc1ncc(-c2nc3c(n2C(C)C)[C@H](c2ccc(Cl)cc2)N(c2cc(Cl)cn(C)c2=O)C3=O)c(OC)n1 | LC-MS/MS | human, plasma | oral, 20 mg, cycle 1 day 8, low-dose arm | – | AUC(0-last) | 1130 ng·h/mL
